Measured values pooled from the literature.
A part holds a random share of what one study measured.

Sample 1
Target: Sal-like protein 4, full length isoform A (SALL4, Homo sapiens, UniProt Q9UJQ4, residues 1-1053)
UniProt Q9UJQ4, sequence (whole entry, looked up): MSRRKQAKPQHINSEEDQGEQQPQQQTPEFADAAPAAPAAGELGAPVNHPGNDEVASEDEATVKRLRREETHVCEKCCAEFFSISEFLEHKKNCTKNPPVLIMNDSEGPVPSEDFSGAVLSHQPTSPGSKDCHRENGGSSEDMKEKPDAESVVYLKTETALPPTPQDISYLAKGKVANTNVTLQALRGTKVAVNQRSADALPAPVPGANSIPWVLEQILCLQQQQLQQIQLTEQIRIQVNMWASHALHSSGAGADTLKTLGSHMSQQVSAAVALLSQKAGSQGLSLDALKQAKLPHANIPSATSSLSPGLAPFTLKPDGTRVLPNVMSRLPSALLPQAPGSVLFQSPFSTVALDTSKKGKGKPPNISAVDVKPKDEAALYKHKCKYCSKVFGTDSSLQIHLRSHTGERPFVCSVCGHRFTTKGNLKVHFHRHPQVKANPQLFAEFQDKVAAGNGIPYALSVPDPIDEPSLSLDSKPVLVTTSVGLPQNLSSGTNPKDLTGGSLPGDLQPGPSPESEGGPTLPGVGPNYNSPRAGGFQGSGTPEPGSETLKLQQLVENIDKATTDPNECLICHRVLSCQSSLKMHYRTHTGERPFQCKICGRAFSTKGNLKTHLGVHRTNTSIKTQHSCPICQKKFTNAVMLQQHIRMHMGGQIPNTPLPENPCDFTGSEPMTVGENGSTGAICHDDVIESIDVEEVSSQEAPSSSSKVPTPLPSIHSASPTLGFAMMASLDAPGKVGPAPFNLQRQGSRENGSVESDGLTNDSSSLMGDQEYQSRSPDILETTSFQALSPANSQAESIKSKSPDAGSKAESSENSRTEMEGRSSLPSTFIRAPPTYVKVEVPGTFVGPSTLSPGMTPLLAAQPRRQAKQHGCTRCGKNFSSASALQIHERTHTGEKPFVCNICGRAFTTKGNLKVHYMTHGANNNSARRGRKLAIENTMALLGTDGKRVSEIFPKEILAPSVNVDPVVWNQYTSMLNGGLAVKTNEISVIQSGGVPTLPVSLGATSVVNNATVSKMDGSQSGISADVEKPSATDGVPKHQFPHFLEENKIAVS
Technique: universal PBM
Molecule type: double-stranded DNA, one strand shown
Sample: in vitro
Concentration: 600 nM
Notes: 8-mer, flanks averaged, mean of replicates
Reading: higher = stronger binding
`ATCTGTGC` gave an E-score of 0.0117.
`ACATCGCA` gave an E-score of -0.144.
With `AAGTAGGC` the E-score was -0.0394.
`CGTTCACC` gave an E-score of -0.213.
For `GGCTCTTA`, the E-score was 0.027.
`CCGATCAA` gave an E-score of -0.0363.
`ATGTAGCA` has an E-score of 0.119.
`AGTAGGAG` has an E-score of -0.246.
For `CGATGGCA`, the E-score was -0.219.
`CCAGCAGC` has an E-score of -0.287.

Sample 2
Target: Histone acetyltransferase KAT6A, winged helix 1, GST fusion (KAT6A, Homo sapiens, UniProt Q92794, residues 1-85)
Technique: protein binding microarray
Molecule type: double-stranded DNA, one strand shown
Sample: in vitro
Concentration: not given
Notes: 8-mer, flanks averaged, mean of 2 arrays, mostly near background
Relative to: not given
Reading: higher = stronger binding
Residues (chain): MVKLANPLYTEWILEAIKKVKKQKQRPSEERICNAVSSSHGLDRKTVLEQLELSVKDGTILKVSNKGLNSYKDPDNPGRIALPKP
For `ACTCGTCT`, the E-score was -0.191.
With `AATCACCA` the E-score was -0.118.
For `CGGTACTA`, the E-score was 0.278.
`AAATCTTA` has an E-score of -0.114.
The E-score of `CACTTTCG` is reported as -0.0824.
With `TCCATGCA` the E-score was -0.018.

Sample 3
Target: Centromere-binding protein 1, full length, N-terminal tag (CBF1, Saccharomyces cerevisiae, UniProt P17106, residues 1-351)
UniProt P17106, sequence (whole entry, looked up): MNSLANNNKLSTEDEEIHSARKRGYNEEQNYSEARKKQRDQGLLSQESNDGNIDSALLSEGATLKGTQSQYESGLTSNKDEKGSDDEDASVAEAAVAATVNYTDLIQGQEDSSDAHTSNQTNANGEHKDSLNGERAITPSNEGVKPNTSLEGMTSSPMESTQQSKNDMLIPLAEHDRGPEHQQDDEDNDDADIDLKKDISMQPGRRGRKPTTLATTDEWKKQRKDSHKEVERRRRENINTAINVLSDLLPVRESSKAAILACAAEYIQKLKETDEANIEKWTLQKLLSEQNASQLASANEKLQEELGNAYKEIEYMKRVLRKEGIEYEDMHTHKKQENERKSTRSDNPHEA
Technique: protein-binding microarray
Molecule type: double-stranded DNA, one strand shown
Sample: in vitro
Concentration: 0.8 µM
Notes: whole 60-bp probe, no competitor
Reading: higher = stronger binding
All sequences stand within: … GTCTTGATTCGCTTGACGCTGCTG
For `GAATCCAAACCGTGGGAGGTGACGTTTCGGCACTAG`, the fluorescence intensity was 484 a.u.
The fluorescence intensity of `GAACAGCTTCCATTACATCTGATGCTATTTCTTTAG` is reported as 516 a.u.
With `GAATTTTTGATAATTCACGTGTAATTAAGAACATAG` the fluorescence intensity was 2900 a.u.
The fluorescence intensity of `GAAACATAAGTAATACTCATGACAGAATCAAAATAG` is reported as 566 a.u.
`CTAACCTGAACAGATCACGATCATCCTTCAGAATTC` gave a fluorescence intensity of 603 a.u.
The fluorescence intensity of `CTAGCCGTGTCAGGTCACGTGAAGAGAGAAATTTTC` is reported as 24100 a.u.

Other studies, line by line
For `PhoQ, residues 284 288 289 292 302 303 SCKMEA`, the fold induction was 12.4 (PhoP, residues 12 14 15 18 19 STHWV (Escherichia coli, UniProt P23836); Sort-seq, refers to: YFP reporter; E. coli; PhoQ-PhoP variant library, with: 10 µM Mg2+; relative to: high Mg2+ state, higher = stronger signaling).

A few entries again (sample 1):
`AGTAGGAG` has an E-score of -0.246.
For `CGATGGCA`, the E-score was -0.219.
`CCAGCAGC` has an E-score of -0.287.
